Assay results pooled from the literature.
Lines come from different studies, so protocols differ. Several values in a cell are separate wells, animals, samples, runs or records. ± gives the spread as reported.

Compound	test	system	setting	how to read	endpoint	result
CCCCCOc1ccc(-c2ccc(-c3ccc(C(=O)N[C@H]4C[C@@H](O)[C@@H](OCC[N+](C)(C)C)NC(=O)[C@@H]5[C@@H](O)[C@@H](C)CN5C(=O)[C@H]([C@@H](C)O)NC(=O)[C@H]([C@H](O)[C@@H](O)c5ccc(O)cc5)NC(=O)[C@@H]5C[C@@H](O)CN5C(=O)[C@H]([C@@H](C)O)NC4=O)cc3)cc2)cc1	–	adult patients in ICU, plasma	intravenous, 400 mg loading dose, after first dose, median	–	Cmin	1900 ng/mL
CC[C@H](C)[C@H](NC(=O)[C@H](Cc1ccccc1)NC(=O)[C@H](CCC(=O)O)NC(=O)[C@H](CCCNC(=N)N)NC(=O)[C@H](C)NC(=O)[C@H](C)NC(=O)[C@H](CCC(N)=O)NC(=O)[C@H](CCC(=O)O)NC(=O)[C@H](CCC(=O)O)NC(=O)[C@H](CC(C)C)NC(=O)[C@H](Cc1ccc(O)cc1)NC(=O)[C@H](CO)NC(=O)[C@H](CO)NC(=O)[C@@H](NC(=O)[C@H](CC(=O)O)NC(=O)[C@H](CO)NC(=O)[C@@H](NC(=O)[C@H](Cc1ccccc1)NC(=O)[C@@H](NC(=O)CNC(=O)[C@H](CCC(=O)O)NC(=O)[C@H](C)NC(=O)CCc1cnc[nH]1)[C@@H](C)O)[C@@H](C)O)C(C)C)C(=O)N[C@@H](C)C(=O)N[C@@H](Cc1c[nH]c2ccccc12)C(=O)N[C@@H](CC(C)C)C(=O)N[C@H](C(=O)N[C@@H](CCCNC(=N)N)C(=O)NCC(=O)N[C@@H](CCCNC(=N)N)C(=O)N[C@@H](CCCCNC(=O)COCCOCCNC(=O)COCCOCCNC(=O)CC[C@H](NC(=O)CCCCCCCCCCCCCCCCC(=O)O)C(=O)O)C(=O)NCC(=O)NCC(=O)N[C@@H](CO)C(=O)N[C@@H](CCCCNC(=O)[C@H](CCCCNc1c(NCCCCCN(O)C(=O)CCC(=O)NCCCCCN(O)C(=O)CCC(=O)NCCCCCN(O)C(C)=O)c(=O)c1=O)Nc1c(NCCCCCN(O)C(=O)CCC(=O)NCCCCCN(O)C(=O)CCC(=O)NCCCCCN(O)C(C)=O)c(=O)c1=O)C(=O)O)C(C)C [zirconium-89 labelled]	ex vivo gamma counting	Sprague-Dawley rat, male, liver	intravenous, 1 nmol, 24 h	–	tissue uptake	1.76 %ID/g and 1.86 %ID/g and 1.95 %ID/g and 1.52 %ID/g and 1.66 %ID/g
N=C(N)NCCC[C@H](NC(=O)[C@H](Cc1ccccc1)NC(=O)[C@H](CCC(N)=O)NC(=O)OCc1ccccc1)C(=O)c1nccs1	–	C57BL/6J mice female, plasma	intravenous, 5 mg/kg	–	Vss	3.41 L/kg
CCN1[C@@H](C(=O)NC23CCC(C(=O)O)(CC2)CC3)[C@H](c2cccc(Cl)c2F)[C@]2(C(=O)Nc3cc(Cl)ccc32)C12CCCCC2	–	patients with advanced solid tumours	oral, 150 mg	–	AST elevation incidence	12.5%
C[C@]1(CO)Cc2ncn(-c3ccc(C#N)c(Cl)c3)c2C(=O)O1	–	human	all treatments, European food-effect part	–	any TEAE	25%
COc1ncccc1-c1cnn2ccc(N3CCN(C(=O)OC(C)C)CC3)nc12	–	rat, CCI mechanical allodynia model, plasma	oral, 3 mg/kg, 240 min	–	drug concentration	560 nM
CC(C)n1c(C2CCNCC2)nc2c([N+](=O)[O-])c(Br)c(Br)cc21	item: Odynophagia	AML patients	125 mg	–	adverse events causing interruption	2%
COc1ccc2[nH]c([S+]([O-])Cc3ncc(C)c(OC)c3C)nc2c1 (stereo not shown)	–	healthy Chinese volunteers, plasma	oral, 20 mg, fed, CYP2C19 intermediate metabolizers	–	Cmax	337 ± 281 ng/mL
O=C1Nc2cc3[nH]nc(-c4ccncc4)c3cc2CN1Cc1ccccc1	CTCAE v4.03	advanced solid tumour patients	intravenous, 4.8 mg/kg, schedules 1/2	–	patients with decreased appetite	25%
C[C@@H]1NC(=O)[C@H](CCCCNC(=O)CO/N=C/C(=O)NCCCC[C@@H]2NC(=O)[C@@H](Cc3ccccc3)NC(=O)[C@H](CC(=O)O)NC(=O)CNC(=O)[C@H](CCCNC(=N)N)NC2=O)NC(=O)CNC(=O)[C@@H]2CCCN2C(=O)[C@H](CCCCNC(=O)CO/N=C/C(=O)NCCCC[C@@H]2NC(=O)[C@@H](Cc3ccccc3)NC(=O)[C@H](CC(=O)O)NC(=O)CNC(=O)[C@H](CCCNC(=N)N)NC2=O)NC(=O)[C@H](CCCCNC(=O)CN2CCCNCCNCCCNCC2)NC(=O)[C@H](CCCCNC(=O)CO/N=C/C(=O)NCCCC[C@@H]2NC(=O)[C@@H](Cc3ccccc3)NC(=O)[C@H](CC(=O)O)NC(=O)CNC(=O)[C@H](CCCNC(=N)N)NC2=O)NC(=O)CNC(=O)[C@@H]2CCCN2C(=O)[C@H](CCCCNC(=O)CO/N=C/C(=O)NCCCC[C@@H]2NC(=O)[C@@H](Cc3ccccc3)NC(=O)[C@H](CC(=O)O)NC(=O)CNC(=O)[C@H](CCCNC(=N)N)NC2=O)NC1=O [copper-64 labelled]	PET imaging	mouse, U-87 MG tumour xenograft, liver	intravenous, 24 h	–	tissue uptake	3.08 ± 0.23 %ID/g
Cn1ncc(-c2nc(N[C@H]3CC[C@H](N)CC3)ncc2Cl)c1CC1CC1	HPLC-MS/MS	patients, plasma	oral, 21 mg, day 5	–	AUC	3770 ng·h/mL
O=c1nc(NO)ccn1[C@@H]1O[C@H](CO)[C@@H](O)[C@H]1O	–	rat fetus dialysate	25 ng/mL, 6 h, 10 °C, low QC concentration, with: molnupiravir	–	autosampler stability	94.2 ± 1.45%
CCc1ccc(CC/C=C/c2ccc3c(c2)C(=O)CC3)cc1	–	Sprague-Dawley rat, female	oral, 30 mg/kg/day, 14 days	–	Calcium	2.39 mM
O=S(=O)(Nc1ccccc1)c1ccc(NC(=S)Nc2ccccc2)cc1	–	female mice, lung	oral, 80 mg/kg daily 14 days	relative to: body weight	relative organ weight	0.9%
CCC[C@@](N)(CO)CCc1ccc(OCCCCCC(C)C)cc1	–	dog, male hounds, plasma	oral capsule, 10 mg/kg, geometric mean	–	AUC(0-t)	6.78 µM·h
CC(C)(c1ccccc1)c1cc(-n2nc3ccccc3n2)c(O)c(C(C)(C)c2ccccc2)c1	exposure assessment	human, age 11-16 years	sunscreen	–	mean daily dermal uptake	0.42 ng/kg body weight/day
CC[C@H](C)[C@@H]1NC(=O)[C@@H]2CCCN2C(=O)[C@H](CC(C)C)NC(=O)[C@H](CC(C)C)NC(=O)CNC(=O)[C@@H](NC(=O)[C@@H](NC(=O)[C@H](CC(=O)O)NC(=O)CNC(=O)[C@@H](NC(=O)[C@H](C)NC(=O)CNC(=O)[C@H](CCCCN)NC(=O)[C@H](CC(C)C)NC(=O)[C@H](CC(C)C)NC(=O)[C@H](CCCCN)NC(=O)CNC(=O)[C@@H](NC(=O)[C@@H](N)CC(C)C)C(C)C)C(C)C)C(C)C)CSSC[C@@H](C(=O)O)NC1=O	–	female C57BL/6 mice, plasma	intravenous, 10 mg/kg, two-compartment model	–	elimination half-life	6.59 ± 0.23 h
O=C(Nc1ccccc1)C1CCN(C(=O)Oc2cccnc2)CC1	adverse event reporting	healthy women	oral, 100 mg, 9 days	–	subjects with affect lability	0%
CO[C@H]1C[C@@H]2CC[C@@H](C)[C@@](O)(O2)C(=O)C(=O)N2CCCC[C@H]2C(=O)O[C@H]([C@H](C)C[C@@H]2CC[C@@H](OC(=O)NCCOCCOCCOCCOCCOCCOCCOCCOCCC(=O)N3CCc4cc(Cn5nc(-c6ccc7oc(N)nc7c6)c6c(N)ncnc65)ccc4C3)[C@H](OC)C2)C[C@@H](O)[C@H](C)/C=C(\C)[C@@H](O)[C@@H](OC)C(=O)[C@H](C)C[C@H](C)/C=C/C=C/C=C/1C	dose-escalation trial	patients with advanced solid tumours	intravenous, all doses weekly	–	serious AE incidence	33%

Compound	test	system	setting	how to read	endpoint	result
COc1ccc(C[C@@H]2NC(=O)[C@H]([C@@H](C)O)NC(=O)[C@@H]3[C@@H]4CCN3C(=O)[C@@H]3Cc5cn(c6ccc(F)cc56)CCCCCCN(Cc5ccc(cc5)CCNC(=O)[C@]5(C)CCCN5C2=O)C(=O)CCC(=O)N[C@@H](C)C(=O)N[C@H](CNC(=O)CCCCC[N+](C)(C)C)C(=O)N[C@@H](Cc2cccc(c2)CNC(=O)CO4)C(=O)N3)cc1	item: abnormal dreams	human	dose not given	–	participants with adverse event	3.2%
Cn1cncc1-c1c(F)cncc1NC(=O)c1c(N)nn2cc(F)cnc12	–	human patients	oral, 150 mg twice daily, 4 days on 3 days off	–	patients grade ≥3 Neutrophil count decrease	25%
C[C@H]1CN(C(=O)CC#N)[C@]12CCN(c1ncnc3[nH]ccc13)C2	–	minipig, female	dermal, 12 mg/kg repeated, 1 months	–	AUC at NOAEL	21 ng·h/mL
CC[C@H](C)CCCCC(=O)N[C@@H](CCN)C(=O)N[C@H](C(=O)N[C@@H](CCN)C(=O)N[C@H]1CCNC(=O)[C@H]([C@@H](C)O)NC(=O)[C@H](CCN)NC(=O)[C@H](CCN)NC(=O)[C@H](CC(C)C)NC(=O)[C@@H](Cc2ccccc2)NC(=O)[C@H](CCN)NC1=O)[C@@H](C)O	–	critically ill patients, plasma	intravenous, 2.1 mg/kg/day, 24 h, median	–	AUC steady state	78300 ng·h/mL
C=CC(=O)N1CC[C@H](n2nc(C#Cc3cc(OC)cc(OC)c3)c3c(N)ncnc32)C1	–	human patients	oral, dose not given, QD regimen, adverse drug reaction, with: ferric citrate hydrate	–	any adverse drug reaction, any grade	100%
CC(C)C[C@H](NC(=O)[C@H](CCCCN)NC(=O)OCC1c2ccccc2-c2ccccc21)C(=O)N[C@H](C(=O)N[C@@H](Cc1ccccc1)C(=O)N[C@@H](Cc1ccccc1)C(=O)N[C@@H](CCCCN)C(=O)NCC(=O)N[C@@H](Cc1ccccc1)C(=O)N[C@@H](C)C(=O)N[C@@H](Cc1c[nH]c2ccccc12)C(=O)N[C@@H](CC(N)=O)C(=O)N[C@H](C(=O)N[C@H]1CSSC[C@@H](C(=O)N[C@@H](Cc2c[nH]cn2)C(=O)N[C@@H](CCCNC(=N)N)C(=O)N[C@@H](CCCNC(=N)N)C(=O)N[C@@H](C)C(=O)N[C@@H](CC(N)=O)C(N)=O)NC(=O)[C@H](C(C)C)NC(=O)[C@H](CCCNC(=N)N)NC(=O)[C@H](C(C)C)NC(=O)CNC(=O)[C@H](CC(N)=O)NC(=O)[C@H](CCCNC(=N)N)NC(=O)[C@H](Cc2ccc(O)cc2)NC(=O)[C@H](C(C)C)NC1=O)C(C)C)C(C)C	–	ICR mouse, serum	ip, 10 mg/kg, 3 d dosing, blood day 5	–	blood urea nitrogen	10.1 ± 0.63 mmol/L
CN1CC[C@@H](c2c(O)cc(O)c3c(=O)cc(-c4ccc(C(F)(F)F)cc4Cl)oc23)[C@@H]1CO	item: rectal abscess	B-cell malignancies or AML	oral, 50 mg, grade 3 to 4, continuous dosing	–	patients with adverse event	0%
CC1CC(c2ccc(S(N)(=O)=O)cc2)=NN1c1ccc(C#N)c(Cl)c1 (stereo not shown)	–	PBS	90 min	–	kinetic solubility	< 1 µM
NCCCS(=O)(=O)O	–	human, plasma	oral, 265 mg	–	terminal half-life	~14 h
COC[C@@H](CC(C)C)NC(=O)c1ccc(C)c(C)c1	–	Hsd:ICR (CD-1) mouse, female, bone marrow	oral, 1352 mg/kg, 24 h	–	PCE to total erythrocyte ratio	0.544
NC(=O)[C@H]1CCN(c2ncnc(N)c2F)C[C@@H]1N1CCC[C@@H](Nc2cc(Cl)cc(C(F)(F)F)c2)C1=O	–	B-cell malignancy patients	oral, 41 mg twice daily, dose	–	grade ≥3 lymphopenia	10%
O=c1ccc2cc3ccoc3cc2o1	three freeze-thaw cycles	rat plasma	200 ng/mL, -70 °C freeze	–	accuracy	91.6%
CC(=O)c1c(C)c2cnc(Nc3ccc(C4CCN(CCS(C)(=O)=O)CC4)cn3)nc2n(C2CCCC2)c1=O	–	human, plasma	oral, 50 mg twice daily, day 21, multiple dose, with: letrozole	–	Tmax	1.94 h
CC(C)(O)c1cc(Nc2cc(Oc3cn(C4CC4)nc3C3CCOCC3)ccn2)ccn1	Nausea	patients with advanced cancer, Japanese cohort	oral, dose not given, grade ≥3	–	treatment-related adverse events	0%
C[C@@H]1OC(=O)NN=C1c1ccc(-c2ccc(F)cc2)c(C(F)(F)F)c1	phase I trial, item: Cough worst grade 1	human patients	5 mg loading then 0.25 mg daily	–	patients with adverse event	0%
CC(C)CC(=O)OC[C@H]1O[C@@](C#N)(c2ccc3c(N)ncnn23)[C@H](O)[C@@H]1O	–	human whole blood	5 µM, 60 min	–	remaining compound	0.439 ± 0.183%
COc1cc2c(Oc3ccc4[nH]c(C)cc4c3F)ccnc2cc1OCC1(N)CC1	–	paediatric refractory sarcoma patients	12 mg	–	ALP elevation incidence	45.5%
CCCCCCCCCCCCCCCC(=O)N[C@@H](CCC(=O)NCCCC[C@H](NC(=O)[C@H](CC(=O)O)NC(=O)[C@H](CO)NC(=O)[C@@H](NC(=O)[C@H](Cc1ccccc1)NC(=O)[C@@H](NC(=O)CNC(=O)[C@H](CCC(N)=O)NC(=O)[C@H](CO)NC(=O)[C@@H](N)Cc1c[nH]cn1)[C@@H](C)O)[C@@H](C)O)C(=O)N[C@@H](CO)C(=O)N[C@@H](CCC(=O)O)C(=O)N[C@@H](Cc1ccc(O)cc1)C(=O)N[C@@H](CC(C)C)C(=O)N[C@@H](CC(=O)O)C(=O)N[C@@H](CO)C(=O)N[C@@H](CCC(=O)O)C(=O)N[C@@H](CCCNC(=N)N)C(=O)N[C@@H](C)C(=O)N[C@@H](CCCNC(=N)N)C(=O)N[C@@H](CC(=O)O)C(=O)N[C@@H](Cc1ccccc1)C(=O)N[C@H](C(=O)N[C@@H](C)C(=O)N[C@@H](Cc1c[nH]c2ccccc12)C(=O)N[C@@H](CC(C)C)C(=O)N[C@@H](CCC(=O)O)C(=O)N[C@@H](C)C(=O)NCC(=O)NCC(=O)O)C(C)C)C(=O)O	item: Headache	humans all renal groups	subcutaneous, 100 µg single dose	–	treatment-related adverse events	16.2%

A few entries again:
Compound	test	system	setting	how to read	endpoint	result
CC[C@H](C)CCCCC(=O)N[C@@H](CCN)C(=O)N[C@H](C(=O)N[C@@H](CCN)C(=O)N[C@H]1CCNC(=O)[C@H]([C@@H](C)O)NC(=O)[C@H](CCN)NC(=O)[C@H](CCN)NC(=O)[C@H](CC(C)C)NC(=O)[C@@H](Cc2ccccc2)NC(=O)[C@H](CCN)NC1=O)[C@@H](C)O	–	critically ill patients, plasma	intravenous, 2.1 mg/kg/day, 24 h, median	–	AUC steady state	78300 ng·h/mL
C=CC(=O)N1CC[C@H](n2nc(C#Cc3cc(OC)cc(OC)c3)c3c(N)ncnc32)C1	–	human patients	oral, dose not given, QD regimen, adverse drug reaction, with: ferric citrate hydrate	–	any adverse drug reaction, any grade	100%
